Results pooled from the literature.
Protocols differ between the studies behind these lines. Several values in a cell are separate wells, animals, samples, runs or records.
Target: Casein kinase I isoform gamma-2 (CSNK1G2, Homo sapiens, UniProt P78368)
Chain of UniProt P78368 (whole entry, looked up): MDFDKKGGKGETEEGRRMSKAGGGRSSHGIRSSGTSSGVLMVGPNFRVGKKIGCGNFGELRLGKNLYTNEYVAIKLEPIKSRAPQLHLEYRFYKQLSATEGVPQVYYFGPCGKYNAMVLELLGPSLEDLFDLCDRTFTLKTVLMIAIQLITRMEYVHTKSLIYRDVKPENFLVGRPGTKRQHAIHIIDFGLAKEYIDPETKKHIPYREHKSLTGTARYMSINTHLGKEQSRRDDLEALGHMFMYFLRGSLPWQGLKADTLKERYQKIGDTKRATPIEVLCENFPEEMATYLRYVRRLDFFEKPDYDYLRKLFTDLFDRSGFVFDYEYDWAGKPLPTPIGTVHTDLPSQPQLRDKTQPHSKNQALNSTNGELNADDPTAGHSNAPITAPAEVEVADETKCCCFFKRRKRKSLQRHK

With `CN1CC[C@@H](COc2cnc(C#N)cc2-c2ccn3nc(NC(=O)C4CC4)cc3c2)C1` the inhibition was 11% (enzyme activity, inhibitor; 1 µM).
With `CN1CCN(Cc2ccc(NC(=O)c3cccc(C#Cc4cnc(N)c5ncccc45)c3)cc2C(F)(F)F)CC1` the remaining binding was 69% (cell-free assay, competition with immobilised ligand; 0.5 µM).
`Cc1cccc(O[C@H]2CCC[C@@H](C(C)CNCc3ccncc3)C2)c1` (relative stereo) has an inhibition of -12% (kinase activity, kinome panel screening; 10 µM).
The inhibition of `Cc1nc2c(F)cc(-c3nc(Nc4ccc(CNC(=O)CCCCCCC(=O)NO)cc4)ncc3F)cc2n1C(C)C` is reported as 55% (enzyme activity, inhibitor; 1 µM).
The remaining binding of `COc1ccc(NC(=O)Nc2ccc3c(c2)C(=O)N(C(C)CO)CC(C)C(CN(C)Cc2ccc4c(c2)OCO4)O3)cc1` (stereo not drawn) is reported as 100% (binding, competition with immobilised ligand; 10 µM).
The remaining binding of `CNC1C[S+]2CC[S+]3CC[S+](C1)[Ru-4]321([N]=C=S)[n]2c3ccc(OC)cc3c3c4c(c5cc(F)c[n+]1c5c32)C(=O)NC4=O` (stereo not drawn) is reported as 95% (KinomeScan; 0.1 µM; relative to: untreated).
With `CC(C)=CC1OC(C)(C)C2C=C3C(=O)C(Cl)=CC(O)C3C3C(O)C4OC4C(=O)C132` (stereo not drawn) the remaining binding was 95% (cell-free assay, competition with immobilised ligand; 10 µM).
For `C=CC(=O)N1CCc2ccc(-n3c(=O)ccc4cnc5ccc(-c6cnn(C)c6)cc5c43)cc21`, the remaining binding was 100% (KINOMEscan; 1 µM; relative to: DMSO control).
`Cc1cnc2nc1Nc1cccc(c1)COC/C=C/COCc1cc(ccc1OCCN1CCOCC1)N2` has a remaining signal of 84% (cell-free assay; 0.1 µM).
`COc1c(OCCCN2CCOCC2)ccc2c1N=C(NC(=O)c1cnc(N)nc1)N1CCN=C21` has a remaining activity of 102% (kinase activity, inhibitor; 1 µM; relative to: untreated control).
The inhibition of `C=CC(=O)Nc1cccc(-c2cnc3[nH]cc(C(=O)NC(C)(C)C)c3n2)c1` is reported as 1% and 7% (kinase activity; 0.1 µM).
The inhibition of `C=CC(=O)Nc1cc(-c2nn(C3CCN(CCNC(=O)[C@H](C)CCC45CC6CC(CC(C6)C4)C5)CC3)c3ncnc(N)c23)ccc1Oc1ccccc1` is reported as 8.6% (inhibitor, KiNativ profiling; biochemical; 2 µM).
